Assay results pooled from the literature.
Numbered parts are unrelated; each lists some results of a single study. Substitutions count along the parent as printed.

Series 1
Target: Histone acetyltransferase KAT6A, winged helix 1, GST fusion (KAT6A, Homo sapiens, UniProt Q92794, residues 1-85)
Technique: protein binding microarray
Molecule type: double-stranded DNA, one strand shown
Sample: in vitro
Concentration: not given
Setting: 8-mer, flanks averaged, mean of 2 arrays, mostly near background
Baseline: not given
Reading: higher = stronger binding
Residues (chain): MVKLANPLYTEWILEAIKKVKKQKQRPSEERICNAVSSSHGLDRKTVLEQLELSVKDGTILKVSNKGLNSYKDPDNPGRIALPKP
| Sequence | E-score |
| --- | --- |
| AATGTCCA | -0.277 |
| ACAAAATG | -0.133 |
| AGCTTGAA | -0.177 |
| AAACACAG | -0.281 |

Series 2
Target: CCND1, cyclin fold, Cln2 fusion (human)
Technique: yeast growth competition, sequencing
Sample: yeast
Setting: strong parent motif
Baseline: not given
Reading: higher = stronger binding
Parent: INSM1 docking peptide (human); PKAIRKLHFEDEV; partner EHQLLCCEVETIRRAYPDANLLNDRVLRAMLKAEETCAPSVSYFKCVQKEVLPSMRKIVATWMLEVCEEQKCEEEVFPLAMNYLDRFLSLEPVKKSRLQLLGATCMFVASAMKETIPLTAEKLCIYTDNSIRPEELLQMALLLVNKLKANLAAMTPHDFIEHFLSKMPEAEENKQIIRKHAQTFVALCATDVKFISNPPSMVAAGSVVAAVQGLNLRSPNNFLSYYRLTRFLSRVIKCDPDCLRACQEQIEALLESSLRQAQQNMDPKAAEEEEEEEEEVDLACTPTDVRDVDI
| Change | normalised enrichment score |
| --- | --- |
| PKAIRKLHFELEV [D11L] | 2.98 |
| PIAIRKLHFEDEV [K2I] | 2.83 |
| PKAIRKMHFEDEV [L7M] | 0.65 |

Series 3
Target: Interferon regulatory factor 7, full length, phosphomimetic (IRF7, Homo sapiens, UniProt Q92985, residues 1-503, S101K/S471D/S472D/S475D/S476D/S477D/S483D/S484D/S487D)
Chain of UniProt Q92985 (whole entry, unmodified, looked up): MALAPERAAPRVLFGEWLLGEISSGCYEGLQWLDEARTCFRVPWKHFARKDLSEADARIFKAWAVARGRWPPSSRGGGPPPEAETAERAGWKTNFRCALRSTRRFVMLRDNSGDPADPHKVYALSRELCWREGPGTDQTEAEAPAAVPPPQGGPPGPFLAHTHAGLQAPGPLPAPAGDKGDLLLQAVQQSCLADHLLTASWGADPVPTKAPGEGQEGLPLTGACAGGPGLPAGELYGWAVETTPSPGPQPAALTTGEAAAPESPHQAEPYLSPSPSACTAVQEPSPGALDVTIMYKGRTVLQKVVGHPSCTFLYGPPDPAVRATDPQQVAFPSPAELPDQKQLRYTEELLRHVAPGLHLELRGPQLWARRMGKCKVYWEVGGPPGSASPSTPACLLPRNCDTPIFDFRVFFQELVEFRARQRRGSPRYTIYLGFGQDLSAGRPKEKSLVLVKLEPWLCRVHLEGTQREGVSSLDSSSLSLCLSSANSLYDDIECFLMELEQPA
Technique: protein-binding microarray
Molecule type: double-stranded DNA, one strand shown
Sample: in vitro
Concentration: 250 nM
Setting: 60-bp whole probe
Added: salmon DNA 0.4 mg/ml
Baseline: random background probes
Reading: higher = stronger binding
Shared flanks, not repeated: GCCTAGCAC … GTCTTGATTCGCTTGACGCTGCTG
| Sequence | log fluorescence [z-score] |
| --- | --- |
| TTTGAACTGGGGTTTCGATTAGTGCTA | 5.34 |
| GACGGTTTCGACTATCCGGACGTGCTA | 6.41 |
| TTAGGTCTCCTGCTCCTTTAGTGCTAG | -0.456 |
| GACGGACTGCTTTGCCTGACGTGCTAG | -0.242 |
| TTAGGACTGGGGTCTCGGTTAGTGCTA | 0.317 |
| TCCTGGAGTCTATGCTGCTGGTGCTAG | -0.573 |
| GGTTTTCTCTATTGCTTTCTGTGCTAG | 3.11 |

Mixed results
| Substance | target | test | test system | setting | how to read | quantity | value |
| --- | --- | --- | --- | --- | --- | --- | --- |
| PhoQ, residues 284 288 289 292 302 303 SSTMSV | PhoP, residues 12 14 15 18 19 NQAHL (Escherichia coli, UniProt P23836) | Sort-seq, item: YFP reporter | E. coli | PhoQ-PhoP variant library, added: 10 µM Mg2+ | baseline: high Mg2+ state, higher = stronger signaling | fold induction | 1.1 |

A few entries again (series 1):
| Sequence | E-score |
| --- | --- |
| AGCTTGAA | -0.177 |
| AAACACAG | -0.281 |
